# Results of several laboratories.
# A part holds a random share of what one study measured.

# Study 1
# Target: Interferon regulatory factor 5, full length, phosphomimetic (IRF5, Homo sapiens, UniProt Q13568-2, residues 1-514, S451D/S453D/S456D/S462D)
# Method: protein-binding microarray
# Molecule type: double-stranded DNA, one strand shown
# Sample: in vitro
# Concentration: 940 nM top
# Notes: 60-bp whole probe
# Added: salmon DNA 0.4 mg/ml
# Reference: random background probes
# Reading: higher = stronger binding
# Constant ends, left off below: GCCTAGCAC … GTCTTGATTCGCTTGACGCTGCTG
Oligonucleotide,fitted relative affinity
GACGATCACAGACTGGAGACGTGCTAG,-0.433 z-score
GACGATTTCGGGTTTCGCGACGTGCTA,1.09 z-score
GACGATTTCAGTTTCGAGAAGTGCTAG,4.56 z-score
TTAGAAATCGGGACTGGATTAGTGCTA,-0.398 z-score
GACGAATTGAGTCTCGAGACGTGCTAG,0.883 z-score
GGCCCTGTCCTTTTCTTTACGTGCTAG,1.37 z-score
TCCACTTGTCTTTTCATTTTGTGCTAG,1.16 z-score
GACGGTTTCGCCTATCGGGACGTGCTA,6.57 z-score
TCACCTCTAACTTCCCAACTGTGCTAG,1.01 z-score
TCAGGTCTCCTTATCCTTTAGTGCTAG,0.387 z-score
TTAGGTCTCCTTTTCCTTGAGTGCTAG,0.0764 z-score
TTCACTTTCTTTACTTCACTGTGCTAG,2.75 z-score
CTAGATCTCAGTTTCGATTAGTGCTAG,8.35 z-score
GACGGTATCTACTTTCGGGACGTGCTA,1.86 z-score
GACGTTATCGGGTTTCGAGACGTGCTA,1.73 z-score
GACGATTTCAGAATCGAGACGTGCTAG,-0.0338 z-score
GACGATCTCAGCCTGGAGACGTGCTAG,0.0534 z-score
GACGAACTGAGTCTCTAGACGTGCTAG,-0.547 z-score
GACGGACTGCTACTGCAGACGTGCTAG,-0.805 z-score
TCACATATGTTTTTCATACTGTGCTAG,0.439 z-score
TTTGGTTTCGGACTGGGTTAGTGCTAG,10.7 z-score
TTATGTTTCCTTCTCCTTTAGTGCTAG,2.02 z-score

# Study 2
# Target: RING finger protein unkempt homolog, zinc fingers 1-6, GST-SBP tag (UNK, Homo sapiens, UniProt Q9C0B0, residues 30-357)
# Sequence of UniProt Q9C0B0 (30-357, looked up): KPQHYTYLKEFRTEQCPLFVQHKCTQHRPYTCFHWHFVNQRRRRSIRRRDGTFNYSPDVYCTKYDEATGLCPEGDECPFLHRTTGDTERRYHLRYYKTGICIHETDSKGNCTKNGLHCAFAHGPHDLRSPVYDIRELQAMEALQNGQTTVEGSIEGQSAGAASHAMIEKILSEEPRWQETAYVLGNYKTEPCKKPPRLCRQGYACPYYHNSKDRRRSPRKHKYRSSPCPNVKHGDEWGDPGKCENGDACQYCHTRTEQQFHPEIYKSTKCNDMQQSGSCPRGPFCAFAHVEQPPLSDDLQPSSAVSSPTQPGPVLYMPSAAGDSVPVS
# Method: RNA Bind-n-Seq
# Molecule type: RNA
# Sample: in vitro
# Concentration: not given
# Notes: RNA with constant flanks, human-mouse chimeric sites, ends assumed
# Reference: input RNA pool
# Reading: higher = stronger binding
# Constant ends, left off below: GGGAGUUCUACAGUCCGACGAUC … CAACAGAGGAUUGAGCAUCA
Oligonucleotide,bound/input enrichment [ratio]
CAACCUCAGAGCCCAGACUUCCUGGAUAUUACCAACCCUAAAGCGGUAUUAGAAAAUGCAUUGAGAAACUUUGCCUGUCUGACGACUGGAGAUGUGAUUGCUAUCAACUACAAUGAGAAG,0.359
CCCCAAUACCAUUUGCAGGUCUGGAACCUGCAUUCUUUUAAAGUUUUACAUGUAUACAUUUUAGGGCUGUAGAUUUAUUUUCCUGGUUUUGUUUUUCAUUGCUGACUUUUGAGCACAGAA,2.22
AGAAAGCAAAACUUGGAAAGAUUUAAGAAAGGAGACGUAAGAUUCUUGAUUUGCACAGAUGUAGCUGCUAGAGGGAUUGAUAUCCAUGGCGUUCCUUAUGUGAUCAAUGUCACUCUGCCU,0.154
GCUGGAUCUUCUAAGUACCAGUGGGACAUUAUGAAAUCCCUUGGGCUCUCUGAUGACGACAUAGUGAAGUUUUCUGAAGCAGAGCACUGGCUUGAUUAUUUCCCGCCACUGGCCGUUCAG,0.131
AUGGAAAAGGAUUCUCUGCCCCGCUUUGUGCGCUCUGAAUUUUAUAAGGAGCUAAUCAAGUAGUCAUUUAGCCAGGCUUCCAAAAGUUGCCCUGUGAGUUGAGUUACAUCCUUUGUAGCA,1.01
CAGCCUCAGAGCCCAGACUUCCUGGAUAUUACCAACCCUAAAGCGGUAUUAGAAAAUGCAUUGAGAAACUUUGCCUGUCUGACCACCGGAGAUGUGAUUGCUAUCAACUACAAUGAGAAG,0.291
CCCCACAACCAUUUGCAAGAGUUGGAAUGCACUCUCUUUUUUAAAAAACAUGUAUACAUUUUAGGGCUGUAGAUUUAUUUUCCUGGUUUUGUUUUUCAUUGCUGACUUUUGAGCACAGAA,1.36
UCAUUUUUCUCUUUUCUUUCUUUCCUUAAAAGCCUAAAGAUUAGACUGGUUGUAAGAAAAACAGAAGCCAUGUUUCGAAGACCUGUGUUACAGGUAUUUCGUCAGUUUGUAAGACAUGAG,0.211
GGCCUGGACCUUCCUGGGGCUAGUACAAAUAGCGGCAGUGGAGGCUCGAGAGGAAAGUUUGUUAGUGGAGGCAGUGGUAGAGGCCGUAUGUACGCUCCCUUUACUCGAUAGAUGUGUUCU,0.224
GAAAGAGAACUAAAGCAACUAAUAGAGAAGAGGAUUGGCAAAGAGAAUUUCAUAGAGAAACUAGGAUUUAUUAGCAAACAUGAGUUAUAUUCCAGAGCGUCUCAGAAACCCCAGCCAAAC,5.93
AUCAAAUACUUUGGGGACAUCAUUAGUGUGGGACAGAGAUUGUUGCAAGGAGCUCGGAUCUUAGGGAUUCCUGUUAUCAUAACGGAACAAUACCCCAAAGGACUUGGCAGCACCGUUCAA,0.235

# Study 3
# Target: Histone acetyltransferase KAT6A, both winged helices, GST fusion (KAT6A, Homo sapiens, UniProt Q92794, residues 1-181)
# Method: protein binding microarray
# Molecule type: double-stranded DNA, one strand shown
# Sample: in vitro
# Concentration: not given
# Notes: 8-mer, flanks averaged, mean of 2 arrays, mostly near background
# Reference: not given
# Reading: higher = stronger binding
# Target sequence (chain): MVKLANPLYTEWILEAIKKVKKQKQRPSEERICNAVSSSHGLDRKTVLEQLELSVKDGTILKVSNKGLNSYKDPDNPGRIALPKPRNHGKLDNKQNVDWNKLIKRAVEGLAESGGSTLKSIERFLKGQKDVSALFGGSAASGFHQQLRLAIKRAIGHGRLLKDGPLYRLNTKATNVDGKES
Oligonucleotide,E-score
GAACCTGA,-0.0857
AATAAGTC,-0.16
CGCGTTTC,0.314
GGTCTTGA,-0.0169
ATATCCAA,-0.0202
TCGCCGAA,0.196
AACTCAAT,-0.184
CGTAATCA,-0.0435
AGGCTCAC,-0.0191
CCCTGACA,-0.263
CATTAAGC,-0.0418
CCTATAGC,-0.0447
TAAGTCGA,-0.14
CCACCATC,-0.0379
GATACCAC,0.0278
ACACGGGC,0.205
GCATCTCA,-0.0933
CCATCAGC,-0.0348
AATTAATG,-0.036
ACAAAGGT,-0.134
AAACTCTA,-0.119
AACAGAAA,-0.12
CATTGATC,-0.131

# Study 4
# Target: RNA binding protein fox-1 homolog 2, RRM domain, GST-SBP tag (RBFOX2, Homo sapiens, UniProt O43251-10, residues 100-194)
# Method: RNA Bind-n-Seq
# Molecule type: RNA
# Sample: in vitro
# Concentration: 365 nM
# Notes: natural RNA segment, single round, ends assumed
# Reference: no-protein control
# Reading: higher = stronger binding
# Constant ends, left off below: GGGAGUUCUACAGUCCGACGAUC … UGGAAUUCUCGGGUGCCAA
# Construct (chain): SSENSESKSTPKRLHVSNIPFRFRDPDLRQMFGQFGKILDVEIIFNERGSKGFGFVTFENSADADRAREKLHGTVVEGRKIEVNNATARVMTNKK
Oligonucleotide,RBNS enrichment (R)
CGACGUUCUUUGCACACUAUAACAGAACACUUUCCUACUUGCUUAGGCAGUUACUCUUCCGAGUUUAUACUCGCCUCUUCUUUAAGAGGAUUUCCUGAAAAGGGAACACC,0.436
CAGAAUGAAGAUGAAUGGCCUGACCAGCUAUCUAGGGUUUGGGGAGAUGCAAAAUUGUAAAAUUCCUUAAUGUUUAAGGGAAAGUUAACUUUAAGAGAUUUUCAGAAAAG,1.04
AUAUCCCUACCUUGAAAGAAGAAAAGGUUCUUACUGCUUGGUCCUUGAUUUAUCACACAAAGCAGAAUAGUAUUUUUAUAUUUAAAUGUAAAGACAAAAAACUAUAUGUA,0.538
CAUCAGUGCACUUCUCCCAGGGGUGCUCACUGAAGCUGGUCCACGUCUAUAAACAGGUGACACUGGCUGCAGCAAAAAGCCAUUCGAUCCACACAAAUUGAUCUUCUAUC,0.199
UGGGUGGUAGUUCCAAAGACACUACUAAUGUGCAGAGAGCGCUCCGGCCUCUGGUGCUGGCCACUACUGUUUCCUGUCAGUCAGAUCUGUGAUAAUGGUUGGAAGGAUGU,0.397
GAAGGAUAAGCUGGUUUGUGUUAAGCAGUAUAAUAUUGAUUGGGUCUUUCGCAUCAUAUUCGUUAGCAUUUAUUUGGUGGCAGAAUGUUUGCCUAGGUACAGAAUUAAUA,0.651
CCUUGGGAGCCACAGGAUUUAACUGGAGCAGACAGGAAACCCUUGGGGAGCAGGCUCAGGCUUCCCCAGCCCCAUCCCAAGCCCUUCAGUGCCAAAAACAAAGAAAUGAA,0.286
CCACCCUGCCCCCACCACAACUCUCUCUUCAGCCACCAUUGCUACCAGGAGAACCACUACAUGCAACUCACGCCCCUUGCCCUAUCACAGGGUUGGGCCUAGACGGAGUC,0.948
GCAUCCACAUGGCAGCUCACAACCAUCUGGAACUCCAGUUCCAGAGAAUCCAAUGCCCUUCUGGCCUUUGUGGAAACUUUCAUAUGUAUGGUAUACAUGCAUACACUACA,0.317
CCUCCAGCCCUUCACUUCCCACUGAGGUUGUCUCUUUACUGCCUGGCAUGACAUCUAAAAGCUCACUGCCUAUGCAGGGCUCACUCCCCACCAUCCGGAUGGCCUCCCAC,0.707
CGUGUUUGCAUUCUUGUUAAUUUUUUUUUUGGCUUUGGAAUGUGACACAGCCUUUUUGAUCAUUUCUUUGAUGUGAAAAGCAUCUUUGGUUAUCAGUUAAAUUGAGGUGG,0.438
UACAAUUUAUUUUCCUUUAACUCUUCUAUGAUAUUUAAAGCGUGCAUCUGCCACAUUGAUGAUUAAAUUAGCAGUUUAGAUAACUUGAGUCCCUUUCCCUUUAUAUUUGA,0.904

# Repeated from above (study 3):
Oligonucleotide,E-score
CCCTGACA,-0.263
CCACCATC,-0.0379
AACTCAAT,-0.184
AGGCTCAC,-0.0191
TCGCCGAA,0.196
CCATCAGC,-0.0348
ACACGGGC,0.205
AAACTCTA,-0.119
